Results collected from several papers.
Each line is one published result; not all experiments were run side by side. Values joined by “and” are separate records of one study, mostly repeats; a detail may differ. ± marks the error that the study gave.
FFAR4: Free fatty acid receptor 4 (FFAR4, Homo sapiens, UniProt Q5NUL3)
Kir3.1/Kir3.2: Kir3.1/Kir3.2 (Homo sapiens, UniProt P48051+P48549)
TRPM8: Transient receptor potential cation channel subfamily M member 8 (TRPM8, Homo sapiens, UniProt Q7Z2W7)

For `O=C(NC1CC1)c1ccc(N2CCOc3ccc(Cl)cc32)s1`, the kon was 10300 M⁻¹ s⁻¹ (Glideosome-associated protein 50 (GAP50, Plasmodium falciparum, UniProt Q8I2X3); binding, surface plasmon resonance; 1:1 binding model).
`C=CC(=O)N1CCC(COCC(=O)N2CCN(c3nc(-c4cnc(N)nc4C(F)F)nc(N4CCOC[C@@H]4C)n3)CC2)CC1` has a remaining binding of 97% (Serine/threonine-protein kinase PAK 2 (PAK2, Homo sapiens, UniProt Q13177); KINOMEscan; 1 µM).
`Oc1ccccc1-c1n[nH]cc1-c1ccnc2ccccc12` — result for “log2 fold change”: 0.29 (Serine/threonine-protein kinase PKH2 (Candida albicans, UniProt Q5A3P6); kinase binding, MIB/MS competition; Candida albicans lysate; 10 µM; baseline: DMSO, negative = stronger binding).
The inhibition of `CC[C@@H]1[C@H](F)C(=O)N[C@@H]1COc1nccc2cc(C(N)=O)c(OC)cc12` is reported as 5.4% (Calcium/calmodulin-dependent protein kinase type 1D (CAMK1D, Homo sapiens, UniProt Q8IU85); ATP-site probe binding, ActivX profiling; THP-1 cell lysate; 0.04 mM, Lys1 site).
Under “activation time constant”, `c1ccc(C(NCc2cccnc2)(c2ccccc2)c2ccccc2)cc1` is recorded as 2 ± 0.5 s (Potassium voltage-gated channel subfamily KQT member 1, with KCNE1 (KCNQ1, Homo sapiens, UniProt P51787); IKs; 300 pM, with KCNE1).
`CCCCCNc1cc(=O)[nH]c(=O)[nH]1` has an agonist effect of 1% (FFAR4; β-arrestin recruitment; CHO; 10 µM; baseline: 30 µM TUG-891).
`O=C(NC1CCC1)c1ccc2nc(-c3cccc(NS(=O)(=O)NCCN4CCCCC4)c3)cn2c1` gave a protein level of 36% (Protein ENL (MLLT1, Homo sapiens, UniProt Q03111); degrader, immunoblot, refers to: MLLT1; 10 µM, 48 h; baseline: DMSO control).
The open probability of `C[C@H](CCC(C)(C)O)[C@H]1CC[C@H]2[C@@H]3CC=C4C[C@@](C)(O)CC[C@]4(C)[C@H]3CC[C@]12C` is reported as 0.07 ± 0.004 (Glutamate NMDA receptor; GRIN1/GRIN2B (GRIN1/GRIN2B, Homo sapiens, UniProt Q05586+Q13224, A652C); two-electrode voltage clamp; Xenopus oocytes; concentration not given, with PAM, from MTSEA potentiation, with: MTSEA).
`COc1cccc(-n2nc3c4cc(Cl)ccc4[nH]cc-3c2=O)c1` has a GABA current of 99 ± 1.4% (Gamma-aminobutyric acid receptor subunit alpha-4/beta-3, with delta subunit (Rattus norvegicus, UniProt P28471+P63079); modulator, two-electrode voltage clamp; α4β3δ receptor; 10 nM, with: GABA EC3-10; baseline: GABA alone).
`Cc1cc(NC(=O)CNC2CCNCC2)n(C2CCS(=O)(=O)C2)n1` (centres unmarked) gave an Emax of less than 10% (Kir3.1/Kir3.2; thallium flux, activator; HEK293; baseline: standard compound).
For `NC(=O)NOCCCCCCCCCCCC[P+](c1ccccc1)(c1ccccc1)c1ccccc1.O=C([O-])C(F)(F)F`, “oxygen consumption rate” read 4.75 ± 2.2% (NADH dehydrogenase [ubiquinone] iron-sulfur protein 7, mitochondrial/NADH dehydrogenase [ubiquinone] iron-sulfur protein 2, mitochondrial/MT-ND1 (Homo sapiens, UniProt O75251+O75306+P03886); complex I-dependent respiration, Seahorse XF96; HCT-116; 3 µM, 24 h; baseline: control).
With `O=C(c1ccc(CNCCCN2CCN(C3CCCCC3)CC2)cc1)c1ccc([N+](=O)[O-])cc1` the selectivity ratio was 40 fold (Sigma intracellular receptor 2 (TMEM97, Homo sapiens, UniProt Q5BJF2); radioligand binding; RT-4 cell membranes; baseline: sigma1 over sigma2 receptor).
`O=C(COc1ccc(Cl)cc1Cl)Nc1cc(C2CCC2)nn1C1CCOCC1` gave an Emax of 45% (Kir3.1/Kir3.2; thallium flux, activator; HEK293; baseline: standard compound).
`Nc1ncnc2n[nH]c(Nc3ccc(F)cc3)c12` has a remaining activity of 108 ± 9.02% (TRPM8; antagonist; HEK293; 5 µM; baseline: control).
`Cc1cc2c(c(=O)[nH]1)C(=O)O/C2=C\c1ccccc1Cl` — result for “binding free energy”: -8.47 kcal/mol (Dual specificity calcium/calmodulin-dependent 3',5'-cyclic nucleotide phosphodiesterase 1C, isoform PDE1C2 (PDE1C, Homo sapiens, UniProt Q14123); enzyme activity, inhibitor; with: 3H-cGMP substrate).
For `Nc1ncnc2c1ncn2[C@@H]1O[C@H](COP(=O)(O)CP(=O)(O)OP(=O)(O)O)[C@@H](O)[C@H]1O`, the specific binding was 170 CCPM and 114 CCPM (P2X purinoceptor 1 (P2RX1, Homo sapiens, UniProt P51575, F188L); saturation binding; HEK293; 1 nM).
Under “probe-enriched protein abundance”, `O=C(CCCc1ccccc1)C(=O)NCCc1ccc(Oc2ccc(C(F)(F)F)cn2)cc1` is recorded as 355000 a.u. (Lipe (Mus musculus, UniProt P54310); inhibitor, refers to: LIPS; mouse, BAT cytosol proteome; 10 µM; baseline: DMSO, lower = stronger inhibition).
`Nc1nc2c(ncn2[C@@H]2O[C@H](COP(=O)(O)O)[C@@H](O)[C@H]2O)c(=O)[nH]1` gave a reaction rate of 2.56 s⁻¹ and 0.46 s⁻¹ and 2.47 s⁻¹ (GUK1 (Homo sapiens, UniProt Q16774, S37P); enzyme activity, NADH-coupled; 2000 µM).
With `CCCCCCNc1[nH]c(=O)[nH]c(=O)c1Br` the activation was 0% (FFAR4; agonist, β-arrestin recruitment; CHO cells; 10 µM).
For `C[C@@H](O)[C@@H](CO)NC(=O)[C@@H](CCCNC(=N)N)NC(=O)[C@@H]1CCCN1C(=O)[C@@H]1CSSC[C@H](NC(=O)[C@H](Cc2ccccc2)NC(=O)CN2CCN(CC(=O)O)CCN(CC(=O)O)CCN(CC(=O)O)CC2)C(=O)N[C@@H](Cc2ccc(O)cc2)C(=O)N[C@@H](Cc2ccccc2)C(=O)N[C@@H](CCC(N)=O)C(=O)N[C@@H](CC(N)=O)C(=O)N1` [gallium-68 labelled], the binding was 43.8% and 46.4% and 42% (Vasopressin V1b receptor (AVPR1B, Homo sapiens, UniProt P47901); receptor binding, radioimmunoassay; concentration not given, with: vasopressin V1b 250 nM).
`CO[C@H]1O[C@H](COS(=O)(=O)O)[C@@H](O[C@@H]2O[C@@H](C(=O)O)[C@@H](O[C@H]3O[C@H](COS(=O)(=O)O)[C@@H](O[C@@H]4O[C@H](C(=O)O)[C@@H](O[C@H]5O[C@H](COS(=O)(=O)O)[C@@H](O)[C@H](O)[C@H]5NS(=O)(=O)O)[C@H](O)[C@H]4O)[C@H](OS(=O)(=O)O)[C@H]3NS(=O)(=O)O)[C@H](O)[C@H]2OS(=O)(=O)O)[C@H](O)[C@H]1NS(=O)(=O)O` has a binding stoichiometry of 1.08 ± 0.12 (Beta-2-glycoprotein 1, domain V (APOH, Homo sapiens, UniProt P02749, V266L); isothermal titration calorimetry; concentration not given, 298 K, with: 150 mM NaCl).
`O=c1cc(NCCc2ccccc2Cl)[nH]c(=O)[nH]1` gave an agonist effect of 0% (FFAR4; agonist, β-arrestin recruitment; CHO cells; 10 µM; baseline: 30 µM TUG-891).
The fibrillization half-time of `CN(C)c1ccc2nc3ccc(=[N+](C)C)cc-3sc2c1` is reported as 56 ± 7% (Microtubule-associated protein tau, 2N4R isoform (MAPT, Homo sapiens, UniProt P10636, del597-597); ThT fluorescence; 0.1-fold over protein, with: tau ΔK280 10 µM; baseline: untreated).
`COc1cc(/C=C2\SC(=O)NC2=O)cc(F)c1OCCNc1nc2c(cnn2C2CCCC2)c(=O)[nH]1` gave a selectivity ratio of 28 fold (High affinity cAMP-specific and IBMX-insensitive 3',5'-cyclic phosphodiesterase 8A (PDE8A, Homo sapiens, UniProt O60658); baseline: PDE8A over PDE9).
`O=c1cc(NCCc2ccc(Cl)cc2)[nH]c(=O)[nH]1` has an agonist effect of 0% (FFAR4; agonist, β-arrestin recruitment; CHO cells; 10 µM; baseline: 30 µM TUG-891).
`Cc1nc(CSc2nc(SCc3ccc(C(C)C)cc3)nc(=O)[nH]2)cs1` gave a decatenated DNA of 24% (DNA topoisomerase 2-alpha (TOP2A, Homo sapiens, UniProt P11388); decatenation; 31.25 µM, replicate 1).
The inhibition of `CCCCC(CC)CNc1cc(=O)[nH]c(=O)[nH]1` (racemic) is reported as -13 ± 7% (FFAR4; antagonist, β-arrestin recruitment; CHO cells; 10 µM).
With `O=Nc1c(-c2c(O)[nH]c3cc(Br)ccc23)[nH]c2ccccc12` the remaining activity was 99.1 ± 3.19% (TRPM8; antagonist; HEK293; 5 µM; baseline: control).
For `CCc1cc(NC(=O)COc2ccc(Cl)cc2Cl)n(CC(F)(F)F)n1`, the Emax was 90% (Kir3.1/Kir3.2; thallium flux, activator; HEK293; baseline: standard compound).
`CCN1CCN(c2cc(N3CCN(CC)CC3)nc(NCCNc3ccnc4cc(Cl)ccc34)n2)CC1` has an activation of 1.43 ± 0.06 fold (Nuclear receptor subfamily 4 group A member 2, LBD (Homo sapiens, UniProt P43354); reporter gene, Gal4 hybrid reporter; 10 µM; baseline: vehicle).
For `CO[C@H](C(=O)N1Cc2c(-c3ccc(C(=O)N4CCCc5ccccc54)cc3)cnn2C[C@H]1C(C)C)c1cnn(C)c1` (single isomer, unassigned), the ΔTm was -1.3 °C (E3 ubiquitin-protein ligase parkin (PRKN, Human, UniProt O60260); nanoDSF; 200 µM; baseline: DMSO).
For `Nc1nc2c(ncn2[C@@H]2O[C@@H]3COP(=O)(O)O[C@H]4[C@@H](O)[C@H](n5cnc6c(=O)[nH]c(N)nc65)O[C@@H]4COP(=O)(O)O[C@H]3[C@H]2O)c(=O)[nH]1`, the ΔS was 29.2 cal/mol/K (Cell cycle histidine kinase CckA, CA domain (Caulobacter vibrioides, UniProt Q9X688); binding, ITC; with: ADP 5 mM).

Repeated from above:
`CCCCCNc1cc(=O)[nH]c(=O)[nH]1` has an agonist effect of 1% (FFAR4; β-arrestin recruitment; CHO; 10 µM; baseline: 30 µM TUG-891).
`C=CC(=O)N1CCC(COCC(=O)N2CCN(c3nc(-c4cnc(N)nc4C(F)F)nc(N4CCOC[C@@H]4C)n3)CC2)CC1` has a remaining binding of 97% (Serine/threonine-protein kinase PAK 2 (PAK2, Homo sapiens, UniProt Q13177); KINOMEscan; 1 µM).
Under “probe-enriched protein abundance”, `O=C(CCCc1ccccc1)C(=O)NCCc1ccc(Oc2ccc(C(F)(F)F)cn2)cc1` is recorded as 355000 a.u. (Lipe (Mus musculus, UniProt P54310); inhibitor, refers to: LIPS; mouse, BAT cytosol proteome; 10 µM; baseline: DMSO, lower = stronger inhibition).
For `CCc1cc(NC(=O)COc2ccc(Cl)cc2Cl)n(CC(F)(F)F)n1`, the Emax was 90% (Kir3.1/Kir3.2; thallium flux, activator; HEK293; baseline: standard compound).
